Results collected from several papers.
Protocols differ between the studies behind these lines. ± gives the spread as reported. ≈ marks a conversion by molar mass, not a printed value.

O=C(O)/C=C/c1ccc(O)cc1  ABTS radical scavenging (62.5 µg/mL): 50.2 ± 1.3%
CCN(CCCCOc1ccc(CCC(=O)N2CCC(Cc3ccccc3)CC2)cc1OC)Cc1ccccc1  step-down latency (step-down passive avoidance; scopolamine-induced amnesic mice; 6.5 mg/kg): 180 s
CC(C)C[C@@H](NC(=O)[C@H]1CCCN1C(=O)[C@H]1CCCN1C(=O)[C@@H](CCCNC(=N)N)NC(=O)[C@@H](CCCNC(=N)N)NC(=O)[C@@H](CCCNC(=N)N)NC(=O)[C@@H](CCC(N)=O)NC(=O)[C@@H](CCCNC(=N)N)NC(=O)[C@@H](CCCNC(=N)N)NC(=O)[C@@H](CCCCN)NC(=O)[C@@H](CCCCN)NC(=O)[C@@H](CCCNC(=N)N)NC(=O)CNC(=O)[C@H](N)Cc1ccc(O)cc1)C(=O)N[C@H](CCCNC(=N)N)C(=O)N[C@H](CCCCN)C(=O)N[C@H](CCCCN)C(=O)N[C@H](CCCCN)C(=O)N[C@H](CCCCN)C(=O)N[C@H](CCCCN)C(=O)N[C@H](Cc1c[nH]cn1)C(N)=O  inhibition (8-Br-cGMP-induced vasodilation; mouse, mesenteric resistance arteries; dose not given, intraluminal perfusion, 80 mmHg, together with: 8-Br-cGMP): ~55%
O=c1c(O)c(-c2cc(O)ccc2O)oc2cc(O)cc(O)c12  ABTS radical scavenging (125 µg/mL): 57.2 ± 1.11%
C[C@H]1[C@H]2CCC[C@]1(c1cccc(O)c1)CCN2CCc1ccccc1  locomotor activity (ICR mice, male and female; dose not given, together with: naltrexone 1.0 mg/kg sc 10 min before): decreased
COC[C@@H](NC(C)=O)C(=O)NCc1ccc(OCc2cccc(OC(F)(F)F)c2)cc1  ED50 (6 Hz seizures; mouse; intraperitoneal): 12 mg/kg
O=P(O)(OCCc1ccccc1)Oc1c2c(c(OP(=O)(O)OCCc3ccccc3)c3c1C1CC3c3cc4c(cc31)C1CC4c3ccccc31)C1CC2c2cc3c(cc21)C1CC3c2ccccc21  EC50 (liposome dye leakage; liposomes 200 nm; 30 min, together with: carboxyfluorescein 50 mM): 2600 nM
COc1cc2c(cc1OC)C(=O)C(=Cc1ccc(N3CC[N+](C)(C)CC3)cc1)C2  NF-kB protein level (western blot; Wistar rat, amyloid beta-induced Alzheimer model, hippocampus; oral, dose not given, 21 days): decreased
O=C(O)CCCC(=O)O  IC50 (DPPH scavenging, absorbance): 72 µg/mL (≈ 545 µM)
Cc1ccc(/C=C/C(=O)O)cc1-c1cc2c(cc1C)C(C)(C)CCC2(C)C  log2 fold change (RNA sequencing, item: Cav1 mRNA; rat, brain; dose not given, 24 h, single dose; baseline: vehicle): 0.62
CC[C@H](C)[C@H](NC(=O)[C@@H](NC(=O)[C@H](CC(=O)O)NC(C)=O)[C@@H](C)O)C(=O)N[C@@H](CCCNC(=N)N)C(=O)N[C@@H](CC(C)C)C(=O)N[C@@H](CC(C)C)C(=O)N[C@@H](Cc1ccccc1)C(=O)N[C@@H](CCC(N)=O)C(=O)N[C@@H](CC(C)C)C(=O)N[C@@H](CCSC)C(=O)N[C@@H](CCCNC(=N)N)C(=O)N1CCC[C@H]1C(=O)N1CCC[C@H]1C(=O)N[C@@H](CC(N)=O)C(=O)N[C@@H](CCSC)C(=O)N[C@H](C(=O)N1CCC[C@H]1C(=O)N[C@@H](C)C(=O)N[C@H](C(=O)N[C@@H](CC(N)=O)C(=O)N[C@@H](C)C(N)=O)C(C)C)[C@@H](C)O  antigen-experienced tetramer+ cells (PBMC CD4 T cells, HLA-DR1 vaccinated children; dose not given): 40 to 71%
COc1ccc([N+](=O)[O-])cc1NC(=O)CCC(=O)[O][Zn][O]C(=O)CCC(=O)Nc1cc([N+](=O)[O-])ccc1OC.c1ccncc1  ABTS radical scavenging (ABTS; 15.62 µg/mL): 63.21 ± 0.16%
C#CCCCCOP(=O)(O)Oc1c2c(c(OP(=O)(O)OCCCCC#C)c3c1C1CC3c3cc4c(cc31)C1CC4c3ccccc31)C1CC2c2cc3c(cc21)C1CC3c2ccccc21  EC50 (liposome dye leakage; liposomes 200 nm; 30 min, together with: carboxyfluorescein 50 mM): 90300 nM
CC[C@H](C)[C@H](NC(=O)[C@H](CCCNC(=N)N)NC(=O)[C@H](CCC(N)=O)NC(=O)[C@H](CC(=O)O)NC(=O)[C@H](CC(C)C)NC(=O)[C@H](CC(C)C)NC(=O)[C@H](CC(N)=O)NC(=O)[C@H](Cc1ccccc1)NC(=O)[C@H](CC(=O)O)NC(=O)[C@@H](NC(=O)[C@@H](NC(=O)[C@H](CC(N)=O)NC(=O)CNC(=O)[C@H](CO)NC(C)=O)C(C)C)[C@@H](C)CC)C(=O)N[C@H](C(=O)N[C@@H](Cc1c[nH]c2ccccc12)C(=O)N[C@@H](CCC(N)=O)C(=O)N[C@@H](CC(N)=O)C(=O)N[C@@H](Cc1c[nH]c2ccccc12)C(=O)N[C@@H](Cc1ccc(O)cc1)C(=O)N[C@@H](C)C(N)=O)[C@@H](C)CC  antigen-experienced T cells (item: HA-52 tetramer; tetramer+ CD4 T cells, PBMC, healthy adults, HLA-DRB1*0101; dose not given, CD62L−CD45RA+/− or CD62L+CD45RA−): 17%
CCc1nnc(-c2c(OC)cc(-c3cnc4cc(-c5cnn(C)c5)ccn34)cc2OC)o1  mRNA level (RT-qPCR, item: Fgf23; male C57BL/6J mice, cortical bone; oral gavage, dose not given, 3 weeks): increased
C[C@@H](NC(=O)[C@@H](N)Cc1ccc(O)cc1)C(=O)NCC(=O)N(C)[C@@H](Cc1ccccc1)C(=O)NCCO  EC50 (C57BL/6 mouse striatal membranes): 340 ± 20 nM
O=P(O)(OCc1ccc(-c2ccccc2)cc1)Oc1c2c(c(OP(=O)(O)OCc3ccc(-c4ccccc4)cc3)c3c1C1CC3c3cc4c(cc31)C1CC4c3ccccc31)C1CC2c2cc3c(cc21)C1CC3c2ccccc21  EC50 (liposome dye leakage; liposomes 200 nm; 30 min, together with: carboxyfluorescein 50 mM): 14100 nM
CCN(Cc1ccccc1)C(=O)CCc1nc(CN2CCN(C(=O)Cc3ccc(OC)c(OC)c3)CC2)no1  onset day (cold withdrawal threshold, cold plate; mouse CCI model; 5 mg/kg, 4 °C, dosing from day 11): 11 days
somatostatin  GFAP-positive glial activation (Sprague-Dawley rat, streptozotocin-induced diabetes, retina; eye drops, 10 mg/mL, score 5): 0%
O=C1C=CC(=O)C(c2cc(Cl)ccc2Cl)=C1  fold induction (ELISPOT, item: IFNγ+ cells; human peripheral blood; concentration not given, maximal induction, comparable dose; baseline: SSG): ~20 fold
CC(C)C[C@@H]1NC(=O)[C@@H]2CSSC[C@@H]3NC(=O)[C@H](Cc4c[nH]c5ccccc45)NC(=O)[C@H]([C@@H](C)O)NC(=O)CNC(=O)[C@H](C)NC(=O)[C@H](CO)NC(=O)[C@H](CCCCN)NC(=O)[C@@H](N)CSSC[C@@H]4NC(=O)[C@H](CSSC[C@H](NC(=O)[C@H](Cc5ccccc5)NC(=O)CNC(=O)[C@H](C(C)C)NC1=O)C(=O)N[C@@H](Cc1ccc(O)cc1)C(=O)NCC(=O)N[C@@H](C(C)C)C(=O)N[C@@H](CO)C(=O)N[C@H](C(=O)O)CSSC[C@H](NC(=O)[C@H](CO)NC(=O)CNC4=O)C(=O)NCC(=O)N2)NC(=O)CNC(=O)[C@H](Cc1c[nH]cn1)NC(=O)[C@@H]1CCCN1C(=O)[C@H](CC(=O)O)NC(=O)[C@H](Cc1ccccc1)NC(=O)CNC3=O  EC50 (vasorelaxation; rat, aortic rings; together with: phenylephrine 0.1 µM precontraction): ~100 nM
CC1=C(C(=O)O)C(c2ccccc2Br)NC(=S)N1 (stereo not drawn)  mean arterial pressure (carotid artery cannulation; male Wistar rats, anaesthetised; 0.3 mL, 3 h): 23.8 ± 0.89 mm Hg
CCCCCCCCCCCCCCCC(=O)N[C@@H](CCC(=O)NCCOCCOCCC(=O)NCCOCCOCCC(=O)NCCCC[C@H](NC(=O)[C@H](CC(=O)O)NC(=O)[C@H](CC(C)C)NC(=O)[C@H](Cc1ccc(O)cc1)NC(=O)[C@H](CCCCN)NC(=O)[C@H](CO)NC(=O)[C@H](Cc1ccc(O)cc1)NC(=O)[C@H](CC(=O)O)NC(=O)[C@H](CO)NC(=O)[C@@H](NC(=O)[C@H](Cc1ccccc1)NC(=O)[C@@H](NC(=O)CNC(=O)[C@H](CCC(N)=O)NC(=O)[C@@H](CO)NC(=O)[C@@H](N)Cc1c[nH]cn1)[C@@H](C)O)[C@@H](C)O)C(=O)N[C@@H](CCCNC(=N)N)C(=O)N[C@@H](CCCNC(=N)N)C(=O)N[C@@H](C)C(=O)N[C@@H](CCC(N)=O)C(=O)N[C@@H](CC(=O)O)C(=O)N[C@@H](Cc1ccccc1)C(=O)N[C@H](C(=O)N[C@@H](CCC(N)=O)C(=O)N[C@@H](Cc1c[nH]c2ccccc12)C(=O)N[C@@H](CC(C)C)C(=O)N[C@@H](CC(C)C)C(=O)N[C@@H](CC(N)=O)C(=O)N[C@H](C(=O)NCC(=O)NCC(=O)N1CCC[C@H]1C(=O)N[C@@H](CO)C(=O)N[C@@H](CO)C(=O)NCC(=O)N[C@@H](C)C(=O)N1CCC[C@H]1C(=O)N1CCC[C@H]1C(=O)N1CCC[C@H]1C(=O)N[C@@H](CO)C(N)=O)[C@@H](C)O)C(C)C)C(=O)O  NFκB and IκBα phosphorylation (Western blot; C57BL/6J mouse CCl4 model, liver; dose not given): inhibited
O=C(O)/C=C/c1cc(O)cc(O)c1  ABTS radical scavenging (500 µg/mL): 76.2 ± 2.91%

For quick reference, copied from above:
CC[C@H](C)[C@H](NC(=O)[C@@H](NC(=O)[C@H](CC(=O)O)NC(C)=O)[C@@H](C)O)C(=O)N[C@@H](CCCNC(=N)N)C(=O)N[C@@H](CC(C)C)C(=O)N[C@@H](CC(C)C)C(=O)N[C@@H](Cc1ccccc1)C(=O)N[C@@H](CCC(N)=O)C(=O)N[C@@H](CC(C)C)C(=O)N[C@@H](CCSC)C(=O)N[C@@H](CCCNC(=N)N)C(=O)N1CCC[C@H]1C(=O)N1CCC[C@H]1C(=O)N[C@@H](CC(N)=O)C(=O)N[C@@H](CCSC)C(=O)N[C@H](C(=O)N1CCC[C@H]1C(=O)N[C@@H](C)C(=O)N[C@H](C(=O)N[C@@H](CC(N)=O)C(=O)N[C@@H](C)C(N)=O)C(C)C)[C@@H](C)O  antigen-experienced tetramer+ cells (PBMC CD4 T cells, HLA-DR1 vaccinated children; dose not given): 40 to 71%
somatostatin  GFAP-positive glial activation (Sprague-Dawley rat, streptozotocin-induced diabetes, retina; eye drops, 10 mg/mL, score 5): 0%
